# Results from different studies.
# Protocols differ between the studies behind these lines. ± gives the spread as reported.
SMILES,organism,test,system,setting,measurement,value
COCC(C)n1c(SCC(=O)Nc2cc(C(F)(F)F)ccc2Cl)nc2ccccc2c1=O (centres unmarked),Plasmodium falciparum,parasite growth,Dd2,,EC50,0.421 ± 0.06 µM
Nc1ncnc2c1ncn2C[C@H](O)CO,respiratory syncytial virus,viral replication,HeLa,,EC50,> 250 µM
CCCNC(=O)c1ccnc(-c2ccc(CNC3Cc4ccccc4C3)cc2)c1,Plasmodium falciparum,"parasite growth, SYBR Green",3D7 DHODH E182D,72 h,EC50,1.73 ± 0.16 µM
CC(N)C(=O)OC(C)(C)Cc1ccc(Cl)cc1 (centres unmarked),Plasmodium falciparum,,Dd2,,IC50,7.94 µM
COCCn1c2nc(=O)n(-c3ccccc3)c(=O)c-2nc2ccccc21,Dengue virus 2,viral replication,replicon,,EC50,11.4 µM
NC(=O)c1ncn([C@@H]2O[C@H](CO)[C@@H](O)[C@H]2O)n1,Zika virus,viral replication,"BHK-21, ZIKV",72 h,EC50,18 µM
CCN(CC)CCO[C@H]1CC[C@@]2(C)C(=CC[C@@H]3[C@@H]2CC[C@]2(C)C(=O)CC[C@@H]32)C1,human rotavirus,"viral replication, focus reduction",MA104,pretreated 20 h before infection,EC50,7.84 µM
O[C@@H]1[C@H](O)[C@@H]2C[C@@H]2[C@H]1n1cnc2c(NC(C3CC3)C3CC3)nc(Cl)nc21,respiratory syncytial virus,"viral replication, neutral red","MA104, A2",,EC50,32 µM
COc1ccc(-c2ncnc3[nH]cc(C#Cc4cccnc4)c23)cc1OC,dengue virus 2,viral replication,Huh-7,,EC50,2.62 ± 0.07 µM
CCOC(=O)c1cn(CC)c2cc(O[C@H]3CCN(C(=O)OC(C)(C)C)C3)ccc2c1=O,Plasmodium falciparum,"parasite growth, SYBR Green",3D7 wild type,72 h,EC50,0.4 ± 0.076 µM
COc1ccc([C@@]23Oc4cc(OC)cc(OC)c4[C@]2(O)[C@H](O)[C@H](C(=O)N(C)C)[C@H]3c2ccccc2)cc1,Hepatitis C virus,viral replication,"Huh-7.5.1, JFH-1 genotype 2a (HCVcc)",,EC50,~0.004 µM
CCCn1c(O)nnc1SCC(=O)Nc1cc(C(F)(F)F)ccc1Cl,Plasmodium falciparum,"parasite growth, SYBR Green",3D7 wild type,72 h,EC50,0.157 ± 0.067 µM
NC(=O)[C@@H](CCC(F)(F)F)N(Cc1ccc(-c2ncon2)cc1F)S(=O)(=O)c1ccc(Cl)cc1,dengue virus 2,"viral replication, luciferase reporter virus",Huh-7.5.1,,EC50,7.7 µM
C(#Cc1c[nH]c2nccc(-c3ccncc3)c12)c1cccnc1,dengue virus 2,viral replication,Huh-7,,EC50,1.87 ± 0.47 µM
COC(=O)N[C@H](C(=O)N1CCC[C@H]1c1ncc(-c2ccc(-c3ccc(-c4cnc([C@@H]5CCCN5C(=O)[C@@H](NC(=O)OC)C(C)C)[nH]4)cc3)cc2)[nH]1)C(C)C,hepatitis C virus,"viral replication, transient replicon",genotype 1a NS5A L31V,,EC50,0.021 µM
C(#Cc1c[nH]c2nccc(-c3cccs3)c12)c1cccnc1,dengue virus 2,viral replication,Huh-7,,EC50,5.59 ± 0.46 µM
CC(C)[C@H](O)C(=O)N[C@@H](C)C(=O)N[C@@H]1C(=O)N(C)CCc2ccccc21,dengue virus 2,"viral replication, luciferase reporter virus",Huh-7.5.1,,EC50,3.4 µM
COc1ccc(-c2ccnc3[nH]cc(C#Cc4cccnc4)c23)cc1F,dengue virus 2,viral replication,Huh-7,,EC50,0.92 ± 0.1 µM
CSc1nc2nc(C)c(Cc3cccc(C(F)(F)F)c3)c(C)n2n1,Plasmodium falciparum,"parasite growth, SYBR Green",3D7 DHODH E182D,72 h,EC50,1.84 ± 0.15 µM
COc1ccc(-c2ncnc3[nH]nc(C#Cc4cccnc4)c23)cc1OC,dengue virus 2,viral replication,Huh-7,,EC50,> 10 µM
CN(C)CCCN1c2ccccc2Sc2ccccc21,Plasmodium falciparum,,7G8,,IC50,7.94 µM
O=c1ccn([C@@H]2O[C@H](CO)[C@@H](O)[C@H]2O)c(=S)[nH]1,Zika virus,viral replication,"BHK-21, ZIKV",,EC50,5 µM
CC(C)C(NC(=O)Cc1cccc2ccccc12)C(=O)Nc1cccc(C#N)c1 (centres unmarked),Plasmodium falciparum,"parasite growth, SYBR Green",3D7 wild type,72 h,EC50,0.363 ± 0.066 µM

# Excerpt of the above:
SMILES,organism,test,system,setting,measurement,value
COCC(C)n1c(SCC(=O)Nc2cc(C(F)(F)F)ccc2Cl)nc2ccccc2c1=O (centres unmarked),Plasmodium falciparum,parasite growth,Dd2,,EC50,0.421 ± 0.06 µM
Nc1ncnc2c1ncn2C[C@H](O)CO,respiratory syncytial virus,viral replication,HeLa,,EC50,> 250 µM
CCCNC(=O)c1ccnc(-c2ccc(CNC3Cc4ccccc4C3)cc2)c1,Plasmodium falciparum,"parasite growth, SYBR Green",3D7 DHODH E182D,72 h,EC50,1.73 ± 0.16 µM
CC(N)C(=O)OC(C)(C)Cc1ccc(Cl)cc1 (centres unmarked),Plasmodium falciparum,,Dd2,,IC50,7.94 µM
